# Results of several laboratories.
# Values joined by “and” are separate records of one study, mostly repeats; a detail may differ. Numbers after ± are the reported error.
# NR4A1: Nuclear receptor subfamily 4 group A member 1 (NR4A1, Homo sapiens, UniProt P22736)
# UniProt P22736, sequence (whole entry, looked up): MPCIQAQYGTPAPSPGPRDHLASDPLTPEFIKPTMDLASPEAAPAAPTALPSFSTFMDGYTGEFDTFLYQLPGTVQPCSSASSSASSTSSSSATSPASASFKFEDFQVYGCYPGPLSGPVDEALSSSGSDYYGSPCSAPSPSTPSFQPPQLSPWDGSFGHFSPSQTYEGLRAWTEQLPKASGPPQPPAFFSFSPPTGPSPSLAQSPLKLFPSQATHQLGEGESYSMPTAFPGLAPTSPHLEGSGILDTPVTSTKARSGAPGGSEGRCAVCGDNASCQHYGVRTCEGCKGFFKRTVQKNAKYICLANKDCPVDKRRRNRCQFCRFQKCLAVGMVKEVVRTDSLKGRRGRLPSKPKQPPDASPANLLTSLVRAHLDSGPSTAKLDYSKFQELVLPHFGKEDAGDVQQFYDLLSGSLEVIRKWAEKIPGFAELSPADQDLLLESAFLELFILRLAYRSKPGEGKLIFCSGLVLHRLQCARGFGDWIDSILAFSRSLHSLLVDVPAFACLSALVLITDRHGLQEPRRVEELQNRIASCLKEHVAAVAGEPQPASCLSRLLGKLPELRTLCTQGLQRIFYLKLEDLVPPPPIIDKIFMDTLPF
# HOG1: Mitogen-activated protein kinase HOG1 (HOG1, Candida albicans, UniProt Q92207)
# UniProt Q92207, sequence (whole entry, looked up): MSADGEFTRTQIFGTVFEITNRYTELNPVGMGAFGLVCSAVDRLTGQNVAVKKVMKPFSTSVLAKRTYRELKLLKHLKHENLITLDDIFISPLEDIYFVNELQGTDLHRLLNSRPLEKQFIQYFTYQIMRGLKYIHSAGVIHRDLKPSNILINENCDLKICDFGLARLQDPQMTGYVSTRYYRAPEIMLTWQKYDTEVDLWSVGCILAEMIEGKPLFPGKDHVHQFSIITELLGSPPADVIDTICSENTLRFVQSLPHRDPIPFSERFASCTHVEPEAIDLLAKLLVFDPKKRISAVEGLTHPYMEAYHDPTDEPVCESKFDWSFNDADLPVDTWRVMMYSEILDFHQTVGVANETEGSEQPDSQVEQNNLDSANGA
# Tumor necrosis factor receptor superfamily member 9/Nectin-4: Tumor necrosis factor receptor superfamily member 9/Nectin-4 (Homo sapiens, UniProt Q07011+Q96NY8)
# UniProt Q96NY8, sequence (whole entry, looked up): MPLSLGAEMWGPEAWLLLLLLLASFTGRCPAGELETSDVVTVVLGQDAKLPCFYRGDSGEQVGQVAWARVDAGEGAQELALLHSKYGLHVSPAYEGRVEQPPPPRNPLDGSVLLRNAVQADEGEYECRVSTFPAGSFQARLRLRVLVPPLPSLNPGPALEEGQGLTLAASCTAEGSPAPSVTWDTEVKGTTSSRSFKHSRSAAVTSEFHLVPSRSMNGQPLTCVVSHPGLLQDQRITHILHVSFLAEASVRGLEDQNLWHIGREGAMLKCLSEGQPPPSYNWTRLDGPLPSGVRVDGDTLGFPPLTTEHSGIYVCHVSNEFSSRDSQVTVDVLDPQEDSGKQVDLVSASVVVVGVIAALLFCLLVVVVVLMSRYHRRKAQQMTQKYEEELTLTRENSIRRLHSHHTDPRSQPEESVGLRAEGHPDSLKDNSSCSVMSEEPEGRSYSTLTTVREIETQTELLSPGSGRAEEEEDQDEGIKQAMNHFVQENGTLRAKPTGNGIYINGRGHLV
# UniProt Q07011, sequence (whole entry, looked up): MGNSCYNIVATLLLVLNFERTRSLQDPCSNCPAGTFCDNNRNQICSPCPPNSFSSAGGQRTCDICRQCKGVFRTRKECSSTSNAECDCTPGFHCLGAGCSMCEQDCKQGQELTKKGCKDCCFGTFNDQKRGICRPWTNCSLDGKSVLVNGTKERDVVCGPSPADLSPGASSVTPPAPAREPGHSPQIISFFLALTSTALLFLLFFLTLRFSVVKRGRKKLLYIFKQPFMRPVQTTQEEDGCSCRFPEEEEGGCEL
# Glutathione hydrolase 1 proenzyme without transmembrane domain: Glutathione hydrolase 1 proenzyme, without transmembrane domain (Homo sapiens, UniProt P19440)
# UniProt P19440, sequence (whole entry, looked up): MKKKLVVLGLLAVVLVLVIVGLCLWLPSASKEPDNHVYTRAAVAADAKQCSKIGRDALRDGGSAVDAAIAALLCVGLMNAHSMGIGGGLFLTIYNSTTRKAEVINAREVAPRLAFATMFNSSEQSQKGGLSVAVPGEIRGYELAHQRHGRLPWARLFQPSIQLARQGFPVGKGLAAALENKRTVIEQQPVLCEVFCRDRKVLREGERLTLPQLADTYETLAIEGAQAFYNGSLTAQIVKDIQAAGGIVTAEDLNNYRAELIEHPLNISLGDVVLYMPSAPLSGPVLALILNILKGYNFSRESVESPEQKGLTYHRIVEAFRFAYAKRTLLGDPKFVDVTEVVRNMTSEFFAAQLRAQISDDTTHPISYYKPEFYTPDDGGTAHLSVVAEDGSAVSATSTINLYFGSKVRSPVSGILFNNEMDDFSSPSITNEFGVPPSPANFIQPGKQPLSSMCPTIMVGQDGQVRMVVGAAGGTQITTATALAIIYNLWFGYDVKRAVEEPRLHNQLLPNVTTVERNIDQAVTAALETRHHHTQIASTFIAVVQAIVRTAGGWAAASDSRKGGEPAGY
# T1: ssDNA, aptamer; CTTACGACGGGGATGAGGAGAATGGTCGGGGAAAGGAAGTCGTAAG
# T2: ssDNA, aptamer; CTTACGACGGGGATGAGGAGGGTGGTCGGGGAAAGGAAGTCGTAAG
# UniProt P51575, sequence (whole entry, unmodified, looked up): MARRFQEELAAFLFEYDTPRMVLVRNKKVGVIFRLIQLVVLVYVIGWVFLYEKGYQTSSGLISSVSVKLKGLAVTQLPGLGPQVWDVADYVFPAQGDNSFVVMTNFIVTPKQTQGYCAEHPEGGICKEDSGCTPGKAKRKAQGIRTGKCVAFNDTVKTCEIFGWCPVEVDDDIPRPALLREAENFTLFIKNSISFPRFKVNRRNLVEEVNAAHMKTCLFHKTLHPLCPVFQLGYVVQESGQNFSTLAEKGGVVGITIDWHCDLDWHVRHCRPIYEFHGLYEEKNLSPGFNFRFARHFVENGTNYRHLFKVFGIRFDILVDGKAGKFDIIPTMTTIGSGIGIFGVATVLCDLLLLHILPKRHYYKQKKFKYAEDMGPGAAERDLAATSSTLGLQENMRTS
# UniProt O76090, sequence (whole entry, unmodified, looked up): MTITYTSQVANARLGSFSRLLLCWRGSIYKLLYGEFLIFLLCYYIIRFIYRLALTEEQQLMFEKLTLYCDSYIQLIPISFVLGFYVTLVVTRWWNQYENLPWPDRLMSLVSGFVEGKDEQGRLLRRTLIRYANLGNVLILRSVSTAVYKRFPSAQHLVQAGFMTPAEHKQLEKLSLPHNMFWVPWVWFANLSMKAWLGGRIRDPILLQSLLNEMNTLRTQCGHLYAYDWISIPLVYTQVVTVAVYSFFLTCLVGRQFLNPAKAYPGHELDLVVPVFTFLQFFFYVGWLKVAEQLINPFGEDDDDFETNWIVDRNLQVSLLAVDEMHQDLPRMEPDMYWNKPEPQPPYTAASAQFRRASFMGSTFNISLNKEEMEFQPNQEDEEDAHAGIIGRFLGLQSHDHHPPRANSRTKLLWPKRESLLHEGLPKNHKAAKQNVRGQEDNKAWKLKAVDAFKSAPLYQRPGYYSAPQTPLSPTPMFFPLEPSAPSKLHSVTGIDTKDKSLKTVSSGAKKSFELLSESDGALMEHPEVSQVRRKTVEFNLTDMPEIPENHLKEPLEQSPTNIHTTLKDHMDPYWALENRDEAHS
# UniProt Q8NER1, sequence (whole entry, looked up): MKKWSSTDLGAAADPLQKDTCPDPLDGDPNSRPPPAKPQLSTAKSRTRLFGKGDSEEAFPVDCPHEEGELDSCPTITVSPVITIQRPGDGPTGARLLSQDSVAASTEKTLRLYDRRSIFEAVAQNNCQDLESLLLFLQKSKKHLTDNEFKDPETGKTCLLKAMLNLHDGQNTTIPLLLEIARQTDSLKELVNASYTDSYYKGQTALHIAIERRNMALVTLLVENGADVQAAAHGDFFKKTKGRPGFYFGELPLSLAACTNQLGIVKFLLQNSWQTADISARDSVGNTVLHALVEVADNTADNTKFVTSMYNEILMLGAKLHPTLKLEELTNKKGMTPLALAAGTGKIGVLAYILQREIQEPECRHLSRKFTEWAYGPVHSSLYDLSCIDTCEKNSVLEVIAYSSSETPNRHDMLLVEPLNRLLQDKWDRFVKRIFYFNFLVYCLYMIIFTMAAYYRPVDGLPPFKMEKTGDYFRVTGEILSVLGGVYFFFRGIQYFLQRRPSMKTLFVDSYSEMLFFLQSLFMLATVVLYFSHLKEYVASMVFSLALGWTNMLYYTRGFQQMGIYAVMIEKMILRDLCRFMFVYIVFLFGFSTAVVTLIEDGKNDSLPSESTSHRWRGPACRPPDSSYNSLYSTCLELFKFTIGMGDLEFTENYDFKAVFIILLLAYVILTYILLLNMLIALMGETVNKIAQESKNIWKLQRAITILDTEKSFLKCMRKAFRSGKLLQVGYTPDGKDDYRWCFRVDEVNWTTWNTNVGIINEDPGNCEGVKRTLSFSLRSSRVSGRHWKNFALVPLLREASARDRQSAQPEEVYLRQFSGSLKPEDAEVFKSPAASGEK
# UniProt Q9NSD7, sequence (whole entry, looked up): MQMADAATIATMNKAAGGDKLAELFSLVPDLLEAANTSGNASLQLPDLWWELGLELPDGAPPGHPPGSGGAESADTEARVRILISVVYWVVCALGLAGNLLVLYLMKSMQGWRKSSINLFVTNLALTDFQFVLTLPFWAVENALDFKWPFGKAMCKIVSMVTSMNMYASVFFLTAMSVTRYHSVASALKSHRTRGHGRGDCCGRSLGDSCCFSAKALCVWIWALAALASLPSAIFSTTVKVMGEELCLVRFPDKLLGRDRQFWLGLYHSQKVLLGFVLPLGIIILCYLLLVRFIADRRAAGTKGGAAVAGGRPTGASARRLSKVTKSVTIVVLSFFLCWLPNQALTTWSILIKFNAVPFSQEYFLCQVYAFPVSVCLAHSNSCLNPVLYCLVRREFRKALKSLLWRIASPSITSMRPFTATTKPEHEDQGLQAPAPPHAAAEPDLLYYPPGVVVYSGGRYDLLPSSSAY
# UniProt Q9KCC6, sequence (whole entry, unmodified, looked up): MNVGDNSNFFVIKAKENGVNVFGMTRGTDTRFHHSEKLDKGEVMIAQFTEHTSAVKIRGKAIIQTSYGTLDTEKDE
# UniProt Q16774, sequence (whole entry, unmodified, looked up): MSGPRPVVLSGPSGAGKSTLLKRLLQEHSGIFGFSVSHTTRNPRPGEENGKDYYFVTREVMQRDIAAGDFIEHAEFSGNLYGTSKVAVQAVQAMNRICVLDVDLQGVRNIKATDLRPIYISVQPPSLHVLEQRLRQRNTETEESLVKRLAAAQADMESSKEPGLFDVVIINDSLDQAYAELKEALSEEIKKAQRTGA
Structure (SMILES),target,test,system,conditions,scale,measurement,value
Cc1cccc(N2CC(C(=O)O)CC2=O)c1 (stereo not drawn),"FBXW7 (Homo sapiens, UniProt Q969H0)","binding, affinity selection mass spectrometry",,,reference: other proteins in batch,fold enrichment,0.961
COc1cccc(OC[C@@H]2CN(CCN3CCc4ccccc43)CCO2)c1,"HTR5A (Homo sapiens, UniProt P47898)",radioligand binding,,"concentration not given, together with: [3H]LSD",,inhibition,-9.8%
Nc1ncnc2c1ncn2[C@@H]1O[C@H](COP(=O)(O)OP(=O)(O)O)[C@@H](O)[C@H]1O,"T1, ssDNA, aptamer",ITC,,,,Kd,19.6 µM
[H]/N=C(/N)NCC(=O)O,"SLC6A6 (Homo sapiens, UniProt P31641, L306A)","binding, microscale thermophoresis",,"7.81 µM, room temperature, together with: 50 nM labelled protein",higher = more binding,normalised MST signal,0.0065
NC(=O)C[C@H](N)C(=O)O,"Methyl-accepting chemotaxis protein, ligand-binding domain (Pectobacterium atrosepticum, UniProt Q6D6I9)",isothermal titration calorimetry,SCRI1043,"pH 6.0, 25 °C, together with: 30 µM PacC ligand-binding domain",,ΔH,-0.6 ± 0.1 kcal/mol
CC[C@H](C)C(=O)O[C@H]1C[C@H](O)C=C2C=C[C@H](C)[C@H](CC[C@@H](O)C[C@@H](O)CC(=O)O)[C@H]21,NR4A1,"reporter gene, Gal4 hybrid reporter",,10 µM,reference: vehicle,activation,0.91 fold
Oc1ccccc1-c1n[nH]cc1-c1ccnc2ccccc12,HOG1,"kinase binding, MIB/MS competition",Candida albicans lysate,10 µM,"reference: DMSO, negative = stronger binding",log2 fold change,-0.04
Nc1ncnc2c1ncn2[C@@H]1O[C@H](COP(=O)(O)CP(=O)(O)OP(=O)(O)O)[C@@H](O)[C@H]1O,"P2X purinoceptor 1 (P2RX1, Homo sapiens, UniProt P51575, E122A)",saturation binding,HEK293,25 nM,,specific binding,178 CCPM and 276 CCPM and 192 CCPM
O=c1nc(SCc2ccc(C(F)(F)F)cc2)nc(SCc2csc3ccc(Cl)cc23)[nH]1,"TOP2A (Homo sapiens, UniProt P11388)",decatenation,,"0.49 µM, replicate 1",,decatenated DNA,0%
O=C(Nc1ccc(-c2nc(-c3ccc(Cl)cc3)no2)cc1)C1CC(=O)N(Cc2ccco2)C1 (stereo not drawn),"RXFP3 (Homo sapiens, UniProt Q9NSD7)",antagonist,CHO-K1 membranes,together with: relaxin-3,,Emax,decreased
Nc1ncnc2c1ncn2[C@@H]1O[C@H](COP(=O)(O)OP(=O)(O)O)[C@@H](O)[C@H]1O,"GUK1 (Homo sapiens, UniProt Q16774)",ITC,,molar ratio 3.506,,ΔH,-0.132 kcal/mol
CCCC[C@@H]1NC(=O)[C@H](Cc2ccc(O)cc2)NC(=O)[C@@H]2CCCN2C(=O)[C@H](CC(=O)O)NC(=O)[C@H](C)NC(=O)[C@H](Cc2ccccc2)NC(=O)[C@@H]2CSCCC(=O)N3CN(CN(C3)C(=O)CCSCCC(=O)N[C@@H](CC(C)(C)C)C(=O)N3CCC[C@H]3C(=O)N[C@@H](CCC(=O)O)C(=O)N[C@H](CCCCNC(=O)CCc3cn(CCOCCOCCOCCOCCOCCC(=O)N[C@H]4CSCCC(=O)N5CN6CN(C5)C(=O)CCSC[C@H](NC(=O)[C@@H](CC(=O)O)NC(=O)[C@H](Cc5cccc7ccccc57)NC(=O)[C@@H]5CCCN5C4=O)C(=O)N[C@@H](CCSC)C(=O)N[C@@H](CCCCNC(=N)N)C(=O)N[C@@H](CC(=O)O)C(=O)N[C@@H](Cc4c[nH]c5ccccc45)C(=O)N[C@@H](CO)C(=O)N[C@@H]([C@@H](C)O)C(=O)N4CCC[C@H]4C(=O)N4C[C@H](O)C[C@H]4C(=O)N[C@@H](Cc4c[nH]c5ccccc45)C(=O)N[C@H](C(N)=O)CSCCC6=O)nn3)C(=O)N3CCC[C@H]3C(=O)N[C@@H](Cc3ccc(O)cc3)C(=O)N2)C(=O)CCSCCNC1=O,Tumor necrosis factor receptor superfamily member 9/Nectin-4,"reporter gene, agonist",HT-1376 coculture with reporter cells,,reference: background,Emax,34 fold
O=C(Nc1cccc2c(=O)cc(-c3nnn[nH]3)oc12)c1ccc(OCCCCc2ccccc2)cc1,"Volume-regulated anion channel subunit LRRC8C, part LRRC8A IL1 chimera (LRRC8C, Homo sapiens, UniProt Q8TDW0, L136K)","ion current, inhibitor, whole-cell patch clamp",HCT LRRC8-/- cells,"0.3 µM, -100 mV",,inhibition,49.6% and 25.5% and 42.9% and 30.9% and 26.7%
Cc1cccc(/C=C/C(=O)Nc2cc(-c3ccnc(N4CCC(O)CC4)c3)ccn2)c1,NR4A1,SPR,,10.0 µM,,binding response,33 RU
N[C@@H](Cc1c[nH]c2ccccc12)C(=O)O,"Transcription attenuation protein MtrB (mtrB, Halalkalibacterium halodurans, UniProt Q9KCC6)",isothermal titration calorimetry,,"25 °C, site 2 two-site model",,ΔH,-8.3 ± 0.2 kcal/mol
COc1cc(-c2cncc3c2CN(C)Cc2cc(N4CCNCC4)ccc2-3)cc(OC)c1OC,"MAPKAPK5 (Homo sapiens, UniProt Q8IW41)",kinase activity,,"1 µM, human enzyme, together with: ATP 10 µM",reference: DMSO control,remaining activity,104%
CCN1CCN(c2cc(N3CCN(CC)CC3)nc(NCCNc3ccnc4cc(Cl)ccc34)n2)CC1,NR4A1,"reporter gene, NBRE reporter full-length",,1 µM,reference: vehicle,activation,0.89 ± 0.17 fold
Nc1ccn([C@H]2C[C@H](O)[C@@H](COP(=O)(O)OP(=O)(O)OP(=O)(O)O)O2)c(=O)n1,"DNA-directed RNA polymerase subunit beta' / DNA-directed RNA polymerase subunit beta (rpoC/rpoB, Escherichia coli, UniProt P0A8T7+P0A8V2)","RNA extension, denaturing gel","Escherichia coli, elongation complex, 6-MI template","5 µM, 10 min, 25 °C",,incorporation efficiency,82%
COc1ccc(Cc2nnc(NS(=O)(=O)c3cccc4ccccc34)s2)cc1,Glutathione hydrolase 1 proenzyme without transmembrane domain,"GSH hydrolysis, uncompetitive inhibitor",,"37 °C, binds gamma-glutamyl enzyme, together with: GSH 5-20 µM",,Kii,96 ± 2 µM
CCN1CCC[C@H]1CNC(=O)c1c(O)c(Cl)cc(Cl)c1OC,"MRGPRD (Homo sapiens, UniProt Q8TDS7)","β-arrestin recruitment, TANGO luminescence",,concentration not given,reference: basal luminescence,log2 fold change,0.032
Cc1cc(-c2cccc(-n3cc(COC(=O)[C@]4(C)C=C(C(=O)OC(C)(C)C)C(=O)CC4)nn3)c2)c(C)c2c1CNCC2,"MAPK8 (Homo sapiens, UniProt P45983)","D-peptide binding, inhibitor, FP peptide displacement",,12.5 µM,lower is stronger displacement,fraction bound,0.655
CC(C)(C)c1sc2ncnc(Oc3c(F)cccc3OC(F)(F)F)c2c1-c1ccc(Cl)cc1,"MRGPRX1 (Homo sapiens, UniProt Q96LB2)","calcium flux, positive allosteric modulator",,"100 µM, no orthosteric agonist",reference: maximum response to agonist,maximum response,10%
COc1cc(CNC(=O)CCCC/C=C/C(C)C)ccc1O,"TRPV1 (Homo sapiens, UniProt Q8NER1)","channel activation, FLIPR calcium",HEK293T,2.22 µM,higher = more activation,calcium response,36.2 a.u. and 25 a.u. and 30.8 a.u. and 26.1 a.u.
Nc1ccc(C(=O)O)cc1,"BEST1, with wild-type BEST1 (Homo sapiens, UniProt O76090, D302A)","ion current, whole-cell patch clamp",HEK293 co-expressing mutant and wild-type,"concentration not given, voltage -60 mV",,current density,-8.6 pA/pF and -4.6 pA/pF and -9.43 pA/pF and -4.45 pA/pF and -10.5 pA/pF and -13.5 pA/pF
CCCCCCCC(=O)N[C@H]1CCOC1=O,lactonase (Rhodococcus sp. BH4),"substrate, cresol purple pH indicator",,"pH 8.3, DMSO 5%",,Km,11.8 ± 4.1 µM
Nc1ncnc2c1ncn2[C@@H]1O[C@H](CO)[C@@H](O)[C@H]1O,"T2, ssDNA, aptamer",ITC,,,,Kd,71 µM
c1ccc(-c2n[nH]cc2-c2ccnc3ccccc23)nc1,HOG1,"binding, MIB/MS competition",Candida albicans cell lysate,0.1 to 10 µM,,activity class,inactive
CCCC[C@@H]1NC(=O)[C@H](Cc2ccc(O)cc2)NC(=O)[C@@H]2CCCN2C(=O)[C@H](CC(=O)O)NC(=O)[C@H](C)NC(=O)[C@H](Cc2ccccc2)NC(=O)[C@@H]2CSCCC(=O)N3CN(CN(C3)C(=O)CCSC[C@@H](C(=O)N[C@@H](C)C(N)=O)NC1=O)C(=O)CCSC[C@H](NC(C)=O)C(=O)N[C@@H](CC(C)(C)C)C(=O)N1CCC[C@H]1C(=O)N[C@@H](CCC(=O)O)C(=O)N[C@H](CCCCNC(=O)CCc1cn(CCOCCOCCOCCOCCOCCC(=O)NCCCC[C@H]3NC(=O)[C@H](Cc4cccc5ccccc45)NC(=O)[C@@H]4CCCN4C(=O)[C@@H](NC(C)=O)CSCCC(=O)N4CN5CN(C4)C(=O)CCSC[C@H](NC3=O)C(=O)N[C@@H](CCSC)C(=O)N[C@@H](CCCCNC(=N)N)C(=O)N[C@@H](CCC(=O)O)C(=O)N[C@@H](Cc3c[nH]c4ccccc34)C(=O)N[C@@H](CO)C(=O)N[C@@H]([C@@H](C)O)C(=O)N3CCC[C@H]3C(=O)N3C[C@H](O)C[C@H]3C(=O)N[C@@H](Cc3c[nH]c4ccccc34)C(=O)N[C@H](C(N)=O)CSCCC5=O)nn1)C(=O)N1CCC[C@H]1C(=O)N[C@@H](Cc1ccc(O)cc1)C(=O)N2,Tumor necrosis factor receptor superfamily member 9/Nectin-4,"reporter gene, agonist",HT-1376 coculture with reporter cells,,reference: background,Emax,42 fold
Cc1ccccc1C(=O)Nc1ccc2c(c1)CN(C1CCC(=O)NC1=O)C2=O (stereo not drawn),"Cereblon/Casein kinase I alpha (CSNK1A1/CRBN, Homo sapiens, UniProt P48729+Q96SW2)","degrader, live-cell HiBiT kinetic",HEK293 LgBiT,10 µM,,degradation rate constant,0.97 h⁻¹
O=C(O)c1ccc(Nc2ncc3c(n2)-c2ccc(Cl)cc2C(c2c(F)cccc2F)=NC3)cc1,CaMKI(h),kinase activity,,1 µM,,remaining activity,98%
COc1ccc(Cc2nnc(NS(=O)(=O)c3ccc4ccccc4c3)s2)cc1,Glutathione hydrolase 1 proenzyme without transmembrane domain,"GSH hydrolysis, uncompetitive inhibitor",,"37 °C, binds gamma-glutamyl enzyme, together with: GSH 5-20 µM",,Kii,206 ± 37 µM
Cc1cc(Nc2cc(N3CCN(C)CC3)nc(Sc3ccc(NC(=O)C4CC4)cc3)n2)[nH]n1,"EEF2K (Homo sapiens, UniProt O00418)","kinase activity, KinaseProfiler",,"0.03 µM, species human",reference: control,remaining activity,94%
O=C(CCCc1ccccc1)C(=O)NCCc1ccc(Oc2ccc(C(F)(F)F)cn2)cc1,"Carboxylesterase 1F (Ces1f, Mus musculus, UniProt Q91WU0)","inhibitor, measured: CES1F","mouse, BAT cytosol proteome",10 µM,"reference: DMSO, lower = stronger inhibition",probe-enriched protein abundance,92200 a.u.

# Some of these lines once more:
Structure (SMILES),target,test,system,conditions,scale,measurement,value
COc1cc(CNC(=O)CCCC/C=C/C(C)C)ccc1O,"TRPV1 (Homo sapiens, UniProt Q8NER1)","channel activation, FLIPR calcium",HEK293T,2.22 µM,higher = more activation,calcium response,36.2 a.u. and 25 a.u. and 30.8 a.u. and 26.1 a.u.
Nc1ccc(C(=O)O)cc1,"BEST1, with wild-type BEST1 (Homo sapiens, UniProt O76090, D302A)","ion current, whole-cell patch clamp",HEK293 co-expressing mutant and wild-type,"concentration not given, voltage -60 mV",,current density,-8.6 pA/pF and -4.6 pA/pF and -9.43 pA/pF and -4.45 pA/pF and -10.5 pA/pF and -13.5 pA/pF
CCCCCCCC(=O)N[C@H]1CCOC1=O,lactonase (Rhodococcus sp. BH4),"substrate, cresol purple pH indicator",,"pH 8.3, DMSO 5%",,Km,11.8 ± 4.1 µM
Nc1ncnc2c1ncn2[C@@H]1O[C@H](CO)[C@@H](O)[C@H]1O,"T2, ssDNA, aptamer",ITC,,,,Kd,71 µM
